Results from different studies.
A part holds a random share of what one study measured.

Series 1
Target: Hepatocyte nuclear factor 3-alpha (Foxa1, Mus musculus, UniProt P35582, residues 1-468, full length assumed)
Method: EMSA with sequencing
Form: double-stranded DNA, one strand shown
Medium: in vitro
Concentration: 10 and 20 nM
Notes: whole designed probe, mean of two concentrations, ends assumed
Baseline: negative control set to 0
Direction: higher = stronger binding
Shared flanks, not repeated: GTGAGCGGTGCCCATTGATGGGGAAC … TTTCACTGGGATCGTGGGGAC
Target sequence (chain): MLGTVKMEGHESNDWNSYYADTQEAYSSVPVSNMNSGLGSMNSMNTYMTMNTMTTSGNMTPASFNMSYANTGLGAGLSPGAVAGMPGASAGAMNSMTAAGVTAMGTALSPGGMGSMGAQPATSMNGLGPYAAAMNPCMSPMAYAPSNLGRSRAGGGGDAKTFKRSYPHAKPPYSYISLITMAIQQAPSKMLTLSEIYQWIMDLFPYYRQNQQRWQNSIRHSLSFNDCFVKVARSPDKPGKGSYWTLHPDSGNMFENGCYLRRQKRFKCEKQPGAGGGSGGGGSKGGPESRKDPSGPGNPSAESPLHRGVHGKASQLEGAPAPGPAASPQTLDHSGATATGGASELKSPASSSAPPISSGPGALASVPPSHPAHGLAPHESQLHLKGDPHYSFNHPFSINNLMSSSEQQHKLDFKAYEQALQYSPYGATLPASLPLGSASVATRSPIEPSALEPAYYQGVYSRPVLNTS
Sequence	normalised bound fraction [ratio]
TTTTCTTCTGGAAATTTACTATATGTAAAAAAGAAGGCAGGAAGGGAATTAAAGGAAAAAGTCCATTCTTCTGATGGCCTTTAAGTATCAAAGTAATCTGAAAATAACCTATTCCAACTACTGTTCCCATTGCTAAAATTGTCTTTTATAAATTTAAGAAAAAATATTAGTAGCAAACATATGATGCAAAGGA	-0.0602
ATCTTCCCCCTCTTCCTTGCCCCACCAGCTCACCTACGGGGGTTATTTGCACAAAGGAAAATAAATAAAGCCGGCATTCGTTAACCCTCTTCACGCGCATACTGCTGTTTGCTCTGCATGAATCATGGTCCTTACGCGAGGCGTGGCTCCGGGAGAGCAAAGCACCGTGTCAGGCGCATGATCCGGGCTCGCC	0.39
CTAACGTGCAAAATGCTGTACATTAAGTATAGCCAAAATGCAACACTGAGACAGACAGAAAAAACAGGAATTTTTCCAGGGAGATAAATCAAAAGTAATCTAGGAGATAGCTTTAGAGCTGTGCTTTCAATGGCTGGATATTCAAATTATGTTTTATCTCTTAAAATTTCAGAAGTAATATGGGGATACTGAA	-0.0722
AAGTATCACAATGATCTTCCATTGCAGAGAAGAAGGAGGAGGGAAGAGACAACATGCATATCATGGAAGGATATGCTTGCCCAAAAACCACAGAGTAATCTAGCACTTACGTTTCATTTGTCAGAATTATGTAGCTTCGTCACTTCCAGCTGAAAGATAGCTGTGTGAAAAGGGTTGTGTTATTTTTTGCAAA	-0.00929
TCTAAAATTTGGGGGGAAATTCTTGTTTTACACTGAAGCATAGAAATGACTCACATGGTTATACATTTTTCAAGAGCAATGCCCATGAATGAGTAAACAAGGAAGCATCTTCCTTGACAGCAACATCAGGGAAAGTCAGTCTTACTGATTAGTCTAGTGCAAGAGGTCACTGTCAAATTATATGCACACTCAT	0.244

Series 2
Target: Interferon regulatory factor 3, full length, phosphomimetic (IRF3, Homo sapiens, UniProt Q14653, residues 1-427, S386D/S396D/S398D/S402D/T404D/S405D)
Method: protein-binding microarray
Form: double-stranded DNA, one strand shown
Medium: in vitro
Concentration: 2540 nM top
Notes: 60-bp whole probe
With: salmon DNA 0.4 mg/ml
Baseline: random background probes
Direction: higher = stronger binding
Shared flanks, not repeated: GCCTAGCAC … GTCTTGATTCGCTTGACGCTGCTG
Target sequence (chain): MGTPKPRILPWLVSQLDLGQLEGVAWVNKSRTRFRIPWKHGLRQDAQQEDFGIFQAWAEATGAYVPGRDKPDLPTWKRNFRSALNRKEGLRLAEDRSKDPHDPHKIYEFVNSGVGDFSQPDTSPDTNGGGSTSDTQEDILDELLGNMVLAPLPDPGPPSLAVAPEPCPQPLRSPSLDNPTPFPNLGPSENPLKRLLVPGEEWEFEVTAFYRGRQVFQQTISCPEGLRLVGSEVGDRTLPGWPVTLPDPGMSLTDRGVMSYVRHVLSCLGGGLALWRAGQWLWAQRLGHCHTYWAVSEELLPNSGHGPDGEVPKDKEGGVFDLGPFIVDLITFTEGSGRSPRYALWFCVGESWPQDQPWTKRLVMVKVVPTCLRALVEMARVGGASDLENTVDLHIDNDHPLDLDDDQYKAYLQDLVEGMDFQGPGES
Sequence	fitted relative affinity [z-score]
TCAGTGCTCATTTTTTTACTGTGCTAG	0.133
GACGATTTCGGGTATCAAGACGTGCTA	1.98
GACGATATCCGGTATCGAGACGTGCTA	1.04
GACGGTTTCGACTTTCGTGACGTGCTA	3.7
TCACCTTGCTTTATGTGACTGTGCTAG	0.483
TTAGGACAGCTACTGCTTTAGTGCTAG	-0.619
CCGCTTTTTTTTTTTTTTTTGTGCTAG	0.426
TTAGGACTGTGGTTTCGGTTAGTGCTA	3.47
GCCGATTTCAGTCTCGAGACGTGCTAG	2.93
TTAGGACTGCTGCTGCTTTAGTGCTAG	-0.942
GACGAACTGGGGTATAGAGACGTGCTA	-0.444
TCACATTTTTTTATCAAACTGTGCTAG	0.775
TGTTGTCTTAGATTCCTTTGGTGCTAG	0.787
TTAGATCTCAGTCTCGATTCGTGCTAG	0.751
TCATTTTGGTCTTTCTGACTGTGCTAG	1.7
TTAGGTCTCGGTTTCCGTTAGTGCTAG	4.11
GTGAGTTTGACATCTTCATCAGTGCTA	-0.349
GACGGTTTCGGTCTCGGGTCGTGCTAG	8.35
GACGGTTTCGGACGGGGGACGTGCTAG	2.84

Series 3
Target: Sal-like protein 4, full length isoform A (SALL4, Homo sapiens, UniProt Q9UJQ4, residues 1-1053)
Chain of UniProt Q9UJQ4 (whole entry, looked up): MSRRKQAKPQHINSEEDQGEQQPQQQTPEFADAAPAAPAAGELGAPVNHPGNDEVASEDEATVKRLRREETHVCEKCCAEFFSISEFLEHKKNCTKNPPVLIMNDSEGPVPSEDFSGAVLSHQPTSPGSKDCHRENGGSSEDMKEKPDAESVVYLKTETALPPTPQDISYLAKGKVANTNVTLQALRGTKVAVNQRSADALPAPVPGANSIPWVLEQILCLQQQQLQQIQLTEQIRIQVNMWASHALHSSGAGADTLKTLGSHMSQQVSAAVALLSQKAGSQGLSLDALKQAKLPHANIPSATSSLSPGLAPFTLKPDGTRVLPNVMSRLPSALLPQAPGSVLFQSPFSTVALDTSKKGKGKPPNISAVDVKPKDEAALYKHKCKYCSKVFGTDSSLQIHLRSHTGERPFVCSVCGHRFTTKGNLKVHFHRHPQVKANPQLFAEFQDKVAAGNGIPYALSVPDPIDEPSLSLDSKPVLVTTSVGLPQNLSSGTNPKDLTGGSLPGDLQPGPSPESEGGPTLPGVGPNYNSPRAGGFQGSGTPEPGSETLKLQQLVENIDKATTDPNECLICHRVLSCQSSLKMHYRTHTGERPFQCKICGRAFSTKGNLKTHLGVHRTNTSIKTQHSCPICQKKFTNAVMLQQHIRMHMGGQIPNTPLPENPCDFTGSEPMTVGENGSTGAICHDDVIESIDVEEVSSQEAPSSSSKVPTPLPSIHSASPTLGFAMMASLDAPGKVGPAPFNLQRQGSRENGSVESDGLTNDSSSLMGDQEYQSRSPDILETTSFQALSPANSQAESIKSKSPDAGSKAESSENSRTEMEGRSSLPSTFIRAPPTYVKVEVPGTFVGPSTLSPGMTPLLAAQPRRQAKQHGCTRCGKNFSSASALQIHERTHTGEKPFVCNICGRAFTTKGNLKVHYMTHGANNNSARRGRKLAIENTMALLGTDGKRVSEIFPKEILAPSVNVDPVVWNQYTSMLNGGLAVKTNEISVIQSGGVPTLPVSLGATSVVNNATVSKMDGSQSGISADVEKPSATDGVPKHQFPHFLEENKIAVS
Method: universal PBM
Form: double-stranded DNA, one strand shown
Medium: in vitro
Concentration: 600 nM
Notes: 8-mer, flanks averaged, mean of replicates
Direction: higher = stronger binding
Sequence	E-score
CGTAATAG	0.222
CAACTCCC	-0.106
GGAGTTCA	-0.047
CAGAAGCC	-0.131
GCTCAAGA	-0.106
CTTTCCAC	0.013
AACTAACG	0.0887
ATAAGGTC	0.211
CTCTATTC	0.0222
AGGGCGGG	-0.135
GAGCCAGC	-0.232
AGCCATAG	-0.125
AATCATGT	0.266
CCACTTCC	-0.036
AGTGTCAC	-0.067
AGGTCGAC	-0.0781
CCATAAAC	0.0965
TCGCGCCA	-0.238
AGCAGCCC	-0.32

Series 4
Target: Histone acetyltransferase KAT6A, winged helix 1, GST fusion (KAT6A, Homo sapiens, UniProt Q92794, residues 1-85)
Method: protein binding microarray
Form: double-stranded DNA, one strand shown
Medium: in vitro
Concentration: not given
Notes: 8-mer, flanks averaged, mean of 2 arrays, mostly near background
Baseline: not given
Direction: higher = stronger binding
Target sequence (chain): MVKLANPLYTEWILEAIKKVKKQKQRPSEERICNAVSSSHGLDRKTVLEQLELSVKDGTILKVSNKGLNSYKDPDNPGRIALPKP
Sequence	E-score
GGGTCATA	-0.0355
CACACCAC	-0.234
CGCTTATC	0.132
CGAGTGAA	-0.0476
CTGATCGA	-0.159
TGCATTAA	-0.142
CGGAACAA	0.163
CTGAGAAA	-0.106
TACGGCTA	0.313
CGGTGCCA	0.187
ATACTTAC	-0.145
TATGCCCA	-0.274
ATCCGTAA	0.254
AAAAGTAG	-0.16
CCATTTTA	0.0559
CGGCCTAC	0.184
CTTATGCC	-0.0853
ACTTTCGC	0.0142
CTTATCTA	-0.0563
GCCCGACC	0.158
AAAAACAG	-0.193
AACTGTCA	-0.0415
GATTTAAC	0.0787

Series 5
Target: Ras GTPase-activating protein-binding protein 1, RRM domain (G3BP1, Homo sapiens, UniProt Q13283)
Chain of UniProt Q13283 (whole entry, looked up): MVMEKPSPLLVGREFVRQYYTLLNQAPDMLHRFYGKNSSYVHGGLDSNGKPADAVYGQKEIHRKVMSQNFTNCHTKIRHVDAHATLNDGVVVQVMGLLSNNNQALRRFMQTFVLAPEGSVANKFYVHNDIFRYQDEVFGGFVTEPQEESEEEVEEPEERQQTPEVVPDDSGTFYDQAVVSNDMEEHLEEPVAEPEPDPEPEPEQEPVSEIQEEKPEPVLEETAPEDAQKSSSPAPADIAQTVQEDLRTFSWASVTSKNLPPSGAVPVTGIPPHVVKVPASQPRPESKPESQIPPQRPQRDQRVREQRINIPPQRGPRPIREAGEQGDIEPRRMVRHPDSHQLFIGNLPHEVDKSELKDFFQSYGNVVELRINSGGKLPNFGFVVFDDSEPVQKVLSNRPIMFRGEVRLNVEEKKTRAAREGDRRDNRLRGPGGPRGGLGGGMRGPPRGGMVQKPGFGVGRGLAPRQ
Method: RNA Bind-n-Seq
Form: RNA
Medium: in vitro
Concentration: 1 µM
Notes: whole 134-nt RNA, ends assumed
With: 150 mM KCl
Baseline: input library
Direction: higher = stronger binding
Shared flanks, not repeated: GGGAGUUCUACAGUCCGACGAUC … UGGAAUUCUCGGGUGUCAAGG
Sequence	log2 enrichment
GUCCUGUGCUACACAUCGUAUGUACCGAAUCGGUUUUUUUGGUUUUUGGAAAAAAAGGAAAGUAUUAUGUUACGCCGUUCGGAUCUGCAC	-0.215
GCAGGAAGUAAAAACAAAUGGAAAUGCUUCGGAUAGUGGCAGGGGUGGGGGUUGCUAAGGAAAGGGUGGGAUGGGGGUGGGUAAAGAGUU	0.745
GUCCUGUGCUACACAUCGUAUGUACCGAAUCGGGGUUUUUGGUUUUUGGUUUUUGGGGAAAGUAUUAUGUUACGCCGUUCGGAUCUGCAC	-0.231
GUCCUGUGCUACACAUCGUAUGUACCGAAUCGGGGAAAAAAGGAAAAAAGGAAAAAAGGAAAGUAUUAUGUUACGCCGUUCGGAUCUGCA	-0.0303
CCUGUGCUACACAUCGUAUGUACCGAAUCGGGGUUUUUUGGGUUUUUUGGGGUUUUUUGGGAAAGUAUUAUGUUACGCCGUUCGGAUCUG	-0.221
GCAGGAAGUAAAAACAAAUGGAAAUGCUUCGGAUAGUGGCAGGGGUGGGGGUUGAAAAGGAAAGGGUGGGAUGGGAGUGGGUAAAGAGUU	1.12
CAAGUCCUGUGCUACACAUCGUAUGUACCGAAUCGGGUGGGUGGGAAAAAAAGGGAAAGUAUUAUGUUACGCCGUUCGGAUCUGCACUUC	0.521
CUCAAGUCCUGUGCUACACAUCGUAUGUACCGAAUCGGGGCGGGGCGGGCGGGAAAGUAUUAUGUUACGCCGUUCGGAUCUGCACUUCCA	0.492
UUGGCUCGAGAGAUUGAAUCAAGCCCCCAGUACCGCCUACGGAUCGCCAUGGAGAACGACGAUGGGCGCACUGAAGAGGAGAAGCACAGU	0.0116

Excerpt of the above (series 4):
Sequence	E-score
CTGATCGA	-0.159
TGCATTAA	-0.142
CGGAACAA	0.163
CTGAGAAA	-0.106
TACGGCTA	0.313
CGGTGCCA	0.187
ATACTTAC	-0.145
TATGCCCA	-0.274
ATCCGTAA	0.254
AAAAGTAG	-0.16
